Measured values collected from several papers.
A part holds a random share of what one study measured.

Series 1
Target: Phosphate system positive regulatory protein PHO4, full length, GST-tagged (PHO4, Saccharomyces cerevisiae, UniProt P07270, residues 1-312)
Technique: competition protein-binding microarray
Form: double-stranded DNA, one strand shown
Medium: in vitro
Tested at: 2 µM
Setting: whole 60-bp probe, lowest competitor level
Added: Cbf1 competitor, 0.05 µM
Reading: higher = stronger binding
Shared flanks, not repeated: … GTCTTGATTCGCTTGACGCTGCTG
Residues (chain): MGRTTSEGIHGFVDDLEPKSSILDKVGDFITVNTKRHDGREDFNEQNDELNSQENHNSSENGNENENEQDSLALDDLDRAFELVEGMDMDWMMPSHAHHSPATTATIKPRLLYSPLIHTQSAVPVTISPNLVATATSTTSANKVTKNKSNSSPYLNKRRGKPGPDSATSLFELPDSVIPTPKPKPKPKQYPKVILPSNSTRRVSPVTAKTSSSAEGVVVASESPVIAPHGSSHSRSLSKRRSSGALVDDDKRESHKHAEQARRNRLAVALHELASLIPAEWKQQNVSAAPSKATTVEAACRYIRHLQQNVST
| Oligonucleotide | fluorescence intensity [a.u.] |
| --- | --- |
| ATAGTGGGCAGACTCCACGTGCAAATGACAGCCAGG | 16000 |
| GTCTTGTCTCATTTTCACGTGCTATTCCCCACTTCA | 14800 |
| GTCTTGTCTCATTGGTACGTGGGTGTCCCCACTTCA | 7000 |
| CAAGTTTGTTTGCTTTTCGTGCAAAATATTAAATAG | 4880 |
| AACAGGCTTGGATGGTACGTGCTTTCCCTTGTCGAG | 7510 |
| AAAGCGGTAATTTGCGCGGTGGGTGCAGATATCTAT | 4380 |
| GGCATATCAATATGACATGTGATATCACTCCGCGGC | 9120 |
| CGGGGTTAAGTTTGGGGTGTGGGTGGCTTGCAGCAG | 5790 |
| AAACTGGCAGCGATATGCATGACAGTGGGGAAAGTA | 6470 |
| GCAGAGGAGATCAGTCTCGTGAAGTGGATGGTTTCC | 4220 |
| CGGGGTTAAGTTTGGTGTGTGGGTGGCTTGCAGCAG | 5500 |
| CTAACGAAGGTTTGACTCGTGGGTGACAAGCCAAGT | 9590 |
| TGCGCAACAACTTGCCGGGTGGGTGTATGTCTAGAA | 4300 |
| CGTCCTAGTGATTGGGAAGTGGGTGCCATGAGGAAG | 6970 |
| AGGTCGCTAAAAATCCACGTTAACGGGACGCTGGTA | 5320 |
| AAATTACTAAGTTGTGTGGTGGGTGACGCCGTATGA | 5640 |
| CAAGAAATCTTGTTCCTCGTGGCCGAATGGTTACGG | 11300 |
| GTCTTGTCTCATTGCACGGTGGGTGTCCCCACTTCA | 7210 |

Series 2
Target: RNA binding protein fox-1 homolog 2, RRM domain, GST-SBP tag (RBFOX2, Homo sapiens, UniProt O43251-10, residues 100-194)
Technique: RNA Bind-n-Seq
Form: RNA
Medium: in vitro
Tested at: 365 nM
Setting: natural RNA segment, single round, ends assumed
Reference: no-protein control
Reading: higher = stronger binding
Shared flanks, not repeated: GGGAGUUCUACAGUCCGACGAUC … UGGAAUUCUCGGGUGCCAA
Target sequence (chain): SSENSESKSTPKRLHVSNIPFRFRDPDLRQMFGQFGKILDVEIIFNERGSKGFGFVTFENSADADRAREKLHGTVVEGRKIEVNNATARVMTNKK
| Oligonucleotide | RBNS enrichment (R) |
| --- | --- |
| UUUGCAAGCAAUGGGAUGAGCAAGAAAAAAAGGACGCAUGGAGGAGAAAAAUUUGAACGAGGCUAGUGCAAUGUUUUGCUGAUAGAUUACAUUGUUAGGGAGCUGGUGAU | 6.11 |
| UUUAAAACAAAUUUGUGCAAACACUGCUAGAGUCAUUUUGAAGCUCAAGCAUUUUCACUUUGUUUCUUACAUGUGUACUUUUUUGUUUACUUGUGAAAAUGGCCAUCUUU | 0.348 |
| UGCCUCCACCCAGGAGACUGAUGCACAAGAUCUGUUUGUGAAAGCCUGAUUUAAAAAGAAAAAAAAAAUUCCUUAAGCCAAAUGGUGUUCCAAGUUGGUUGCUGUGACAA | 0.62 |
| AGAAUUAUUUUCUGAGAGAAUCUUAAACUUAGAAUAUUCAGAUGCAGUAGAUACUGGCGUGUGGAGAUUCACAGACGACCUCAGCACCCAUCCCACCAGGUCCCUGGACU | 0.224 |
| GUCAGCUAGGCCAAUAGGAACAGACCGGGACCUUGUCUCACACUGAUGAUACCUCACAUGUUGACCGGCUAUGUGAACUGCCUAUUUCCUAUGCUGGAGUUUUGAUUUUU | 0.634 |
| CUUUGCCUGUAUUUAUCAAAGAAAAAGACCAAAAGAUGAUGGUAAAACCUCUGUUUCUAUAGAUUUAUUUUUAUACAUGUUUAAUUAUUGAAUCAUAAAAUGGGGACAUA | 0.54 |
| CGCAAGUGUAUCUGUUAGUACACUCUGCAAGAGGACUGGACUGCUGGCCUAGGUAUAUGGAUCUCACGCCUCUUGGGGAGACAGAUUGCAAAAAUGGGUUCCCUGCAUGU | 11.6 |
| UCAUAAUUUUGUAAUAAUCUUUAUUUUCCCUUAGCAAACCAAGUAAAAAUAAACUAGUAAAAGAUUAUCAUGUUUUAUGACCAUCAACGGAAUCAUUUUAAUGUGUUCCU | 0.344 |
| UCAGCCUGUGUGCUACUGAACUGUCGAAGGAAAUAGCCGCUCUGAUAGGUAGAUGUGAGUAAAAAGAACAGGAAAAAAUUGCUUCUUUUAUUGGUUUCCAAAGAAACAAA | 1.2 |
| GUGAGCAGAGCCAGAAGGUAGGUCUGUUCAGAGUCUGUGCCCCUGGACCUGGGGAGUGGAUAUCAGAUGGGAUAUCUCCUUCCAUUCCCCGGUCCAGGGGAGAGUCACUA | 0.4 |
| UAGACCAUAGCUGCAGGUUAACCAAUUAGUUACUAUCGUAGAGUAAUAUAUAUUCAGAAUAAUAAACUCAAGCUGGAGAAAUGAGUCCUGAUAGACUGAAAAUUGAGCAA | 0.455 |
| AUUCGAAUGACUUCAUUUUUCCCACCCUGUGGGUCAGUUUGUGACUUUUGGAAUUUUCCACAGGUACCUGUACAACUUGAUAUUUGAAAACAGGAUUCAUCACCAUAUAU | 0.325 |

Series 3
Target: Histone acetyltransferase KAT6A, winged helix 1, GST fusion (KAT6A, Homo sapiens, UniProt Q92794, residues 1-85)
Technique: protein binding microarray
Form: double-stranded DNA, one strand shown
Medium: in vitro
Tested at: not given
Setting: 8-mer, flanks averaged, mean of 2 arrays, mostly near background
Reference: not given
Reading: higher = stronger binding
Target sequence (chain): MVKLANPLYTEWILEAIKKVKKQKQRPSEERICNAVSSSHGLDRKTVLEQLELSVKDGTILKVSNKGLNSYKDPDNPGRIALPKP
| Oligonucleotide | E-score |
| --- | --- |
| ATATGACA | -0.234 |
| GGGTCTAA | -0.0994 |
| ATCACGCC | 0.0335 |
| GGTCAGTA | 0.133 |
| CATGTGAA | -0.0261 |
| ATTTTAAA | -0.0945 |
| CCTATGCG | 0.133 |
| CCGTAGGC | 0.291 |
| ATGGATAC | -0.188 |
| GTATGAAA | -0.0164 |
| GGATGCCC | 0.0435 |
| ACTTTCTG | -0.121 |
| AGGGAGAT | -0.215 |
| CTTTTTAC | -0.0743 |
| CGCTCTCA | 0.0733 |
| AACTACCG | 0.105 |

Series 4
Target: Ras GTPase-activating protein-binding protein 1, full length (G3BP1, Homo sapiens, UniProt Q13283)
UniProt Q13283, sequence (whole entry, looked up): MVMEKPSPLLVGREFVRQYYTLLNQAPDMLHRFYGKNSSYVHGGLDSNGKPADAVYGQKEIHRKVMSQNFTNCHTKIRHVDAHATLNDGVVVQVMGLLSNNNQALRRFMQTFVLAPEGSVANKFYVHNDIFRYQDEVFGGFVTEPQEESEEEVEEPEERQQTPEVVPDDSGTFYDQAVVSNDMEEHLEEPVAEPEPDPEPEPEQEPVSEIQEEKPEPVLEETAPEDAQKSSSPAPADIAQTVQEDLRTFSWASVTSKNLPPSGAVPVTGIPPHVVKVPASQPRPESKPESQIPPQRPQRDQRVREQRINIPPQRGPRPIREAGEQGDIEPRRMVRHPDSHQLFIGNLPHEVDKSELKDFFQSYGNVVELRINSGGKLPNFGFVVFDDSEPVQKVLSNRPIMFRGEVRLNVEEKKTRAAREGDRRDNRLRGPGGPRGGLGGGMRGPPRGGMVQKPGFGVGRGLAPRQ
Technique: RNA Bind-n-Seq
Form: RNA
Medium: in vitro
Tested at: 200 nM
Setting: whole 134-nt RNA, ends assumed
Added: 150 mM KCl
Reference: input library
Reading: higher = stronger binding
Shared flanks, not repeated: GGGAGUUCUACAGUCCGACGAUC … UGGAAUUCUCGGGUGUCAAGG
| Oligonucleotide | log2 enrichment |
| --- | --- |
| CAAGUCCUGUGCUACACAUCGUAUGUACCGAAUCGGGUUUUGGUUUUGGUUUUGGGAAAGUAUUAUGUUACGCCGUUCGGAUCUGCACUU | -1.12 |
| UGGCCCUGGUGGCAUGCGGGGAGGAAGAGGCGGCCUCAUGGAUCGUGGUGGUCCCGGUGGAAUGUUCAGAGGUGGCCGUGGUGGAGACAG | 0.0739 |
| UGGGAGAUGGAUUUUGUUUAUUUUUUUAGCUCAUUUCCAGGGGUGGGAAUUUUUUUUUAAUAUGUGUCAUGAAUAAAGUUGUUUUUGAAA | -0.509 |
| AGUCCUGUGCUACACAUCGUAUGUACCGAAUCGGCCCCGGGGCCCCGGGGCCCCGGGGAAAGUAUUAUGUUACGCCGUUCGGAUCUGCAC | -0.833 |
| CAAGUCCUGUGCUACACAUCGUAUGUACCGAAUCGGUUUGGUUUGGAAAAAAAGGAAAGUAUUAUGUUACGCCGUUCGGAUCUGCACUUC | -0.818 |
| ACCAUGCAGGUGGGCAUCUUUGGGAAGUGGUGCAAGGGGGGGAUAGGGAGGGGGGUAACACUUUGGGAACAGGUGGUCCCAGGUCGUUUC | 1.29 |
| UGGGAGGUGGAUUUUGUUUAUUUUUUUAGCUCAUUUCCAGGGGUGGGAAUUUUUUUUUAAUAUGUGUCAUGAAUAAAGUUGUUUAUGAAA | 0.139 |
| UGGCCCUGCUGGCAUGCGGGGAGGAAGAGGUGGCCUCAUGGAUCGUGGUGGUCCCGGUGGAAUGUUCAGAGGUGGCCGUGGUGGAGACAG | -0.075 |
| UCCUGUGCUACACAUCGUAUGUACCGAAUCGGGUUUUUGGGUUUUUGGGUUUUUUUGGGAAAGUAUUAUGUUACGCCGUUCGGAUCUGCA | -0.23 |
| GCAGGAAGUAAAAACAUAUGGAAAUGCUUCGGAUAGUGGCAGGGGUGGGGGUUGCUAAGGAAAGGGUGGGAUGGGAGUGGGUAAAGAGUU | 1.11 |
| AGUCCUGUGCUACACAUCGUAUGUACCGAAUCGGCCCCCGGCCCCCGGGCCCCCGGGAAAGUAUUAUGUUACGCCGUUCGGAUCUGCACU | -0.491 |
| CAAGUCCUGUGCUACACAUCGUAUGUACCGAAUCGGAGGAAAAAAAGGAAAAAGGAAAGUAUUAUGUUACGCCGUUCGGAUCUGCACUUC | -0.721 |
| UGGGAGGUGGAUUUUGUUUAUUUUUUUAGCUCAUUUCCAGGGGUGGGAAUUUUUUUUUAAUAUGUGUAAUGAAUAAAGUUGUUUUUGAAA | 0.0986 |
| AAGUCCUGUGCUACACAUCGUAUGUACCGAAUCGGAAAAAAAGGAAAGGAAAAAGGAAAGUAUUAUGUUACGCCGUUCGGAUCUGCACUU | -1.24 |

For quick reference, copied from above (series 4):
| Oligonucleotide | log2 enrichment |
| --- | --- |
| UGGGAGAUGGAUUUUGUUUAUUUUUUUAGCUCAUUUCCAGGGGUGGGAAUUUUUUUUUAAUAUGUGUCAUGAAUAAAGUUGUUUUUGAAA | -0.509 |
| AGUCCUGUGCUACACAUCGUAUGUACCGAAUCGGCCCCCGGCCCCCGGGCCCCCGGGAAAGUAUUAUGUUACGCCGUUCGGAUCUGCACU | -0.491 |
| GCAGGAAGUAAAAACAUAUGGAAAUGCUUCGGAUAGUGGCAGGGGUGGGGGUUGCUAAGGAAAGGGUGGGAUGGGAGUGGGUAAAGAGUU | 1.11 |
| UGGGAGGUGGAUUUUGUUUAUUUUUUUAGCUCAUUUCCAGGGGUGGGAAUUUUUUUUUAAUAUGUGUCAUGAAUAAAGUUGUUUAUGAAA | 0.139 |
| UCCUGUGCUACACAUCGUAUGUACCGAAUCGGGUUUUUGGGUUUUUGGGUUUUUUUGGGAAAGUAUUAUGUUACGCCGUUCGGAUCUGCA | -0.23 |
| AGUCCUGUGCUACACAUCGUAUGUACCGAAUCGGCCCCGGGGCCCCGGGGCCCCGGGGAAAGUAUUAUGUUACGCCGUUCGGAUCUGCAC | -0.833 |
| UGGCCCUGGUGGCAUGCGGGGAGGAAGAGGCGGCCUCAUGGAUCGUGGUGGUCCCGGUGGAAUGUUCAGAGGUGGCCGUGGUGGAGACAG | 0.0739 |
| CAAGUCCUGUGCUACACAUCGUAUGUACCGAAUCGGUUUGGUUUGGAAAAAAAGGAAAGUAUUAUGUUACGCCGUUCGGAUCUGCACUUC | -0.818 |
